Assay results of several laboratories.
Protocols differ between the studies behind these lines. “And” joins repeats or separate records; there may be more than shown. Numbers after ± are the reported error.

SMILES	target	test	system	setting	how to read	quantity	result
O=C1NC(=O)c2c1c1cc(F)c[n+]3c1c1c2c2cc(O)ccc2[n]1[Ru-4]312([N]=C=S)[S+]3CC[S+]1CC[S+]2CC3 (stereo not shown)	MARK2 (Homo sapiens, UniProt Q7KZI7)	enzyme activity	–	100 nM, human enzyme, with: 10 µM ATP	relative to: untreated	remaining activity	7%
O=[N+]([O-])c1ccc2c(N=Nc3ccc4ccccc4c3O)c(O)cc(S(=O)(=O)O)c2c1	Bcl-2-related protein A1 (Mus musculus, UniProt Q07440, C113S/P104K)	differential scanning fluorimetry	–	100 µM	–	delta Tm	37.4 °C
COCC1CCCCN1C(=O)n1cc(C(O)(c2ccccc2)c2ccccc2)nn1 (stereo not shown)	Serine hydrolase-like protein (Serhl, Mus musculus, UniProt Q9EPB5)	probe labelling, inhibitor, competitive ABPP-SILAC, refers to: Serhl	mouse T cells	concentration not given, 4 h, in situ, single peptide	relative to: treated over DMSO, lower = more inhibition	SILAC ratio	1.42 and 1.94 and 1.36 and 1.56 and 1.47 and 1.46 and 1.12 and 1.48
CCN(C)C(=O)Oc1ccc(/C=C/C(=O)N2CCc3ccccc3C2)cc1OC	Cholinesterase (BCHE, Equus caballus, UniProt P81908)	Ellman	equine serum BuChE	–	relative to: AChE IC50 over BuChE IC50	selectivity ratio	9.5
N[C@H](C(=O)N1CCCC1)C1CCN(c2nccc3c(-c4ncc(Cl)cc4Cl)cccc23)CC1	PADI4 (Homo sapiens, UniProt Q9UM07)	enzyme activity	–	0.01573 µM, high-affinity site, with: Ca2+ 1.5 mM	–	kcat	2.07 s⁻¹ and 2.09 s⁻¹
CN(C)Cc1c[nH]c2cc(F)ccc12	GTPase HRas, GDP-bound (HRAS, Homo sapiens, UniProt P01112, G12V)	ligand-detected 1H NMR	–	concentration not given	–	binding	no binding
CC[C@H](C)[C@H](NC(C)=O)C(=O)N[C@@H](CCCNC(=N)N)C(=O)N[C@@H](CC(C)C)C(=O)N[C@@H](CCC(N)=O)C(=O)N[C@H](C(=O)N[C@@H](CO)C(=O)N[C@@H](CC(N)=O)C(=O)N1CCC[C@H]1C(=O)N[C@@H](Cc1ccc(O)cc1)C(=O)N[C@@H](CC(C)C)C(=O)N[C@@H](CCCCN)C(=O)N[C@@H](Cc1ccccc1)C(=O)N[C@H](C(=O)N1CCC[C@H]1C(=O)N[C@@H](CC(C)C)C(=O)N[C@@H](CCCCN)C(=O)N[C@@H](CCCNC(=N)N)C(=O)N[C@@H](C)C(=O)N[C@H](C(=O)N[C@@H](Cc1c[nH]c2ccccc12)C(=O)N[C@@H](CC(C)C)C(=O)N[C@H](C(=O)N[C@@H](CCCCN)C(N)=O)[C@@H](C)CC)[C@@H](C)CC)[C@@H](C)CC)[C@@H](C)CC	Interferon regulatory factor 5, residues 222-425 (IRF5, Homo sapiens, UniProt Q13568)	thermal shift	–	–	–	melting temperature	40.6 ± 0.1 °C
C#CCCCCOc1ccc2c(c1)CCCN2C(=O)CCl	Phosphatidylserine lipase ABHD16A (Homo sapiens, UniProt O95870)	mass spectrometry profiling, refers to: ABHD16A	H460 cell lysate	100 µM over 10 µM, UniProt O95870	relative to: high over low concentration	reactivity ratio	1.41
CCO[C@H]1[C@H](O)[C@@H](N)[C@@H](O[C@H]2[C@H](O[C@@H]3O[C@H](CO)[C@@H](O[C@H]4O[C@@H](CN)[C@@H](O)[C@H](O)[C@H]4N)[C@H]3O)[C@@H](O)[C@H](N)C[C@@H]2N)O[C@@H]1CO	HRH2 (Homo sapiens, UniProt P25021)	radioligand binding	–	10 µM, 1% DMSO	–	specific binding	-12%
CC(C)CC(O)(CC(C)C)c1cn(C(=O)N2CCCC2)nn1	Phospholipase DDHD1 (Ddhd1, Mus musculus, UniProt Q80YA3)	probe labelling, inhibitor, refers to: Ddhd1	mouse, brain	i.p., 0.8 mg/kg, 4 h, single peptide	relative to: treated over vehicle mice, lower = stronger inhibition	activity ratio-of-ratios	1.01 and 1.17 and 1.48 and 1.27 and 1.35
CN(C)[C@H]1C[C@@]23CC[C@@]4(O2)C(=CC[C@]2(C)[C@@H](c5ccc6ccncc6c5)CC[C@H]24)C=C3[C@@H](O)[C@@H]1O	TLK1 (Homo sapiens, UniProt Q9UKI8)	ATP probe labelling, inhibitor, KiNativ profiling	–	0.1 µM	–	inhibition	-3.9%
CC[C@H](C)[C@@H]1NC(=O)[C@@H](CCCNC(=N)N)NC(=O)[C@@H](NC(=O)[C@@H](CC(C)C)NC(=O)[C@H](C)NC(=O)[C@H](C)NC(=O)[C@@H]2CCCN2C(=O)[C@@H](CC(C)C)NC(=O)[C@@H](NC(=O)[C@@H](CCCNC(=N)N)NC(=O)[C@@H](CC(C)C)NC(=O)[C@@H](CC(C)C)NC(=O)[C@@H](NC(=O)[C@@H](CCCNC(=N)N)NC(=O)[C@@H](CC(C)C)NC(=O)[C@@H](NC(=O)[C@@H](NC(=O)CNC(=O)[C@@H](CC(C)C)NC(=O)[C@@H](N)Cc2ccccc2)[C@@H](C)O)C(C)C)C(C)C)C(C)C)CSSC[C@@H](C(=O)O)NC(=O)[C@@H](CCCNC(=N)N)NC(=O)[C@@H](CCCNC(=N)N)NC(=O)[C@H](Cc2ccccc2)NC1=O	Staphylococcus aureus lipoteichoic acid	lipoteichoic acid binding, BODIPY TR cadaverine displacement	–	–	–	concentration at peak fluorescence	1 µM
CCCCC/C=C\C/C=C\C/C=C\C/C=C\CCCC(=O)NCCc1ccc(O)c(O)c1	Trpv1 (Mus musculus, UniProt Q704Y3, T551S)	ion current, agonist, whole-cell patch clamp	–	T551S	–	Hill coefficient	1.59 ± 0.39
CS(C)(=O)=Nc1ccc(-c2ccc(-c3nc4cc(O[C@@H]5CO[C@H]6[C@@H]5OC[C@H]6O)[nH]c4cc3F)cc2)cc1	MAPKAPK3 (Homo sapiens, UniProt Q16644)	enzyme activity, inhibitor	–	10 µM	–	inhibition	16%
CC[C@H](C)[C@H](NC(=O)[C@H](CCCNC(=N)N)NC(=O)[C@H](CCCNC(=N)N)NC(=O)[C@H](CC(C)C)NC(=O)[C@H](Cc1ccccc1)NC(=O)CNC(=O)CNC(=O)[C@@H](N)Cc1ccc(O)cc1)C(=O)N[C@@H](CCCNC(=N)N)C(=O)N1CCC[C@H]1C(=O)N[C@@H](CCCCN)C(=O)N[C@@H](CC(C)C)C(=O)N[C@@H](CCCCN)C(=O)O	GPR139 (Homo sapiens, UniProt Q6DWJ6)	G protein activation, agonist, BRET, refers to: Gα11	HEK-293T/17	40 µM	relative to: GαoA response	Emax	59.5%
CC(C)[C@H]1NC(=O)C[C@H]2/C=C/CCSSC[C@@H](NC1=O)C(=O)N[C@H](Cc1cccc3ccccc13)C(=O)NCC(=O)O2	MAPK1 (Homo sapiens, UniProt P28482)	enzyme activity, inhibitor	–	10 µM	–	inhibition	-4.2%
C=CC(=O)Nc1cc(-c2ccc(C(=O)N3CCCC(O)(CC)C3)cc2)ccc1F (stereo not shown)	DNA dC->dU-editing enzyme APOBEC-3B, C-terminal domain (Homo sapiens, UniProt Q9UH17)	covalent adduct, intact protein MS	–	3 h, 1-fold, 25 µM	–	adducted protein	0% and 5%
CCOC(=O)[C@@H]1Cc2c(cc([N+](=O)[O-])cc2[N+](=O)[O-])[C@H](O)[C@]12C(=O)Nc1ccc(Br)cc12	MAPK8 (Homo sapiens, UniProt P45983)	KINOMEscan	–	100 nM	relative to: DMSO control	remaining binding	100%
COc1ccc(NC(=S)NCCN2CCC(C)CC2)cc1Cl	uncharacterized protein (Apis mellifera, UniProt A0A7M6W5G5)	enzyme activity, inhibitor, Ellman	–	up to 1000 µM, pH 7.4, 30 °C, with: 1 mM acetylthiocholine	–	IC50	inactive
CC[C@H](C)[C@@H]1NC(=O)[C@H](CC(C)C)NC(=O)CNC(=O)[C@H](CCCNC(=N)N)NC(=O)[C@H](Cc2c[nH]c3ccccc23)NC(=O)[C@H](CCSC)NC(=O)[C@H](CO)NC(=O)[C@H](CCC(=O)O)NC(=O)[C@H](Cc2ccccc2)NC(=O)[C@H](CC(=O)O)NC(=O)[C@H]([C@@H](C)O)NC(=O)CNC(=O)[C@H](CCC(=O)O)NC(=O)[C@H]([C@@H](C)O)NC(=O)CNC(=O)[C@H](CC(=O)O)NC1=O	MDM2 (Homo sapiens, UniProt Q00987)	MDM2-ligand binding, inhibitor, AlphaLISA competition	–	0.02441 µM, with: GST-tagged MDM2 ligand	lower = stronger inhibition	AlphaLISA signal	11400 a.u. and 10700 a.u. and 11100 a.u.
CC(C)C[C@H](NC(=O)[C@H]1O[C@@H]1C(=O)O)C(=O)NCCCCN=C(N)N	Pro-cathepsin H (Homo sapiens, UniProt P09668)	–	–	–	–	Hill slope	-1.53
CC#CC(=O)NC[C@H](NC(=O)[C@H](CC1CCCCC1)NC(=O)[C@H](CCC(N)=O)NC(C)=O)C(=O)N[C@@H](CC(C)C)C(=O)N[C@@H](Cc1ccccc1)C(=O)O	Beta sliding clamp (Escherichia coli, UniProt P0A988)	binding, isothermal titration calorimetry	–	25 °C	–	-TΔS	2.1 kcal/mol

Repeated from above:
SMILES	target	test	system	setting	how to read	quantity	result
CC[C@H](C)[C@H](NC(C)=O)C(=O)N[C@@H](CCCNC(=N)N)C(=O)N[C@@H](CC(C)C)C(=O)N[C@@H](CCC(N)=O)C(=O)N[C@H](C(=O)N[C@@H](CO)C(=O)N[C@@H](CC(N)=O)C(=O)N1CCC[C@H]1C(=O)N[C@@H](Cc1ccc(O)cc1)C(=O)N[C@@H](CC(C)C)C(=O)N[C@@H](CCCCN)C(=O)N[C@@H](Cc1ccccc1)C(=O)N[C@H](C(=O)N1CCC[C@H]1C(=O)N[C@@H](CC(C)C)C(=O)N[C@@H](CCCCN)C(=O)N[C@@H](CCCNC(=N)N)C(=O)N[C@@H](C)C(=O)N[C@H](C(=O)N[C@@H](Cc1c[nH]c2ccccc12)C(=O)N[C@@H](CC(C)C)C(=O)N[C@H](C(=O)N[C@@H](CCCCN)C(N)=O)[C@@H](C)CC)[C@@H](C)CC)[C@@H](C)CC)[C@@H](C)CC	Interferon regulatory factor 5, residues 222-425 (IRF5, Homo sapiens, UniProt Q13568)	thermal shift	–	–	–	melting temperature	40.6 ± 0.1 °C
CN(C)Cc1c[nH]c2cc(F)ccc12	GTPase HRas, GDP-bound (HRAS, Homo sapiens, UniProt P01112, G12V)	ligand-detected 1H NMR	–	concentration not given	–	binding	no binding
